Measurements pooled from the literature.
Lines come from different studies, so protocols differ. “And” joins repeats or separate records; there may be more than shown. Numbers after ± are the reported error.

SMILES	cell line	assay	setting	how to read	quantity	value
CCN1CCN(Cc2ccc(NC(=O)c3ccc(C)c(-c4ccc5nc(NC(=O)C6CC6)cn5c4)c3)cc2C(F)(F)F)CC1	persistent SET-2	Western blot	1 µM, 4 h	–	pSTAT3 level	decreased
COc1cc(/C=C/C(=O)N2CCC=CC2=O)cc(OC)c1OC	MDA-MB-468	qRT-PCR, refers to: NOS2	30 µM, 6 h	relative to: time zero	mRNA level	886 ± 474%
CCOc1ccc(-c2nc3cc(-c4nc5cc(N6CCN(C)CC6)ccc5[nH]4)ccc3[nH]2)cc1OCC	MDA-MB-435	SRB	10 µM, 48 h	–	growth percent	-2.53%
C[S+](C)[O-]	WA09 hESC-derived forebrain rosette tissues	–	0.1 % v/v	–	single rosette emergence	91.7 ± 8.94%
CC#CC(=O)N1CCC[C@H]1c1nc(-c2ccc(C(=O)Nc3ccccn3)cc2)c2c(N)nccn12	TMD8	calcium flux, FLIPR	2 h preincubation, together with: anti-IgM	–	IC50	0.0117 µM
Cn1cc(Nc2nccc(-c3ccc4c(c3)CN(C3COC3)CC[C@H]4NC(=O)c3cn(C(C)(C)C)nn3)n2)cn1	human B cells	–	100 nM, 64 h, stimulation-upregulated genes, together with: CD40L, anti-IgM, IL-4	–	number of unchanged genes	1820
Cn1cc(-c2ccc(-c3cncc(Cl)c3N3CCC4(CCNC4=O)CC3)cc2)cn1	COLO 205	microarray, refers to: PLAUR	concentration not given, 6 h, gene set uPAR	relative to: untreated cells	fold change in expression	1.71
CCn1cc(-c2cc(Cn3ccnc3)cc3c2CCN([C@H](c2cc(OC)ccn2)C2CC2)C3=O)c(C(F)(F)F)n1	MDA-MB-175-VII	cell growth, inhibitor	120 h	–	EC50	18.4 µM
Cc1nn(-c2nc3c(F)cc(F)cc3s2)c(O)c1C(c1cccc(C(F)(F)F)c1)c1c(C)nn(-c2nc3c(F)cc(F)cc3s2)c1O	THP1-Dual	IFN luciferase reporter	2.5 µM, together with: HT-DNA	–	inhibition	-0.926% and -10.6% and -12.3% and -2.86% and -2.93% and -3.28%
c1ccc2[nH]ccc2c1	HCT-8	RNA-seq, refers to: ULBP1	concentration not given	–	mRNA level, LS mean	13.2 counts per million
Cc1cc(OCc2nnc(SC3CCCC3)n2-c2cccnc2)ccc1-c1ccc(S(C)(=O)=O)cc1	BRD4-HiBiT cells	BRD4 degradation rescue, inhibitor	2 h, together with: dBET6 500 nM	–	EC50	8.71 µM
Nc1cccc2c1C(=O)N(C1CCC(=O)NC1=O)C2=O (centres unmarked)	RPMI-8226	flow cytometry, refers to: CD98	concentration not given	relative to: comparator compound alone	surface marker level	248%
Nc1ncnc2c1ncn2[C@@H]1O[C@H](CO)[C@@H](O)[C@H]1O	activated human T cells	refers to: carbamoyl aspartate	10 µM	relative to: DMSO	log2 fold change	7.9 and 7.1 and 6.6
Clc1nc(NCc2ccco2)c2[nH]cnc2n1	iPSC-derived cardiomyocytes	RNA-seq, refers to: chr16 exon ending 29454113	unit not given	relative to: DMSO minus compound	ΔPSI	-0.21
Cc1nn(-c2nc3c(F)cc(F)cc3s2)c(O)c1C(c1ccccc1C(F)(F)F)c1c(C)nn(-c2nc3c(F)cc(F)cc3s2)c1O	THP1-Dual	IFN luciferase reporter	80 µM, together with: HT-DNA	–	inhibition	101%
CCOC(=O)C1=C(C)NC2=C(C(=O)OC(c3ccccc3Cl)C2)C1c1ccccc1Cl (centres unmarked)	J774.A1	cytotoxicity	–	–	EC50	> 20 µM
O=C(C=Cc1cc(C(=O)c2ccc(OC3CCCC3)cc2O)ccc1OCc1ccc2c(O)noc2c1)NCCOCCOCCOCCOCCOCCOCCOCCNc1cccc2c1C(=O)N(C1CCC(=O)NC1=O)C2=O (centres unmarked)	FaDu cells	RT-qPCR, refers to: FOSL1 target genes SNAI2, BMI1	concentration not given	–	mRNA level	inhibited
C[C@H]1Oc2cc(cnc2N)-c2c(nn(C)c2C#N)CN(C)C(=O)c2ccc(F)cc21	Ba/F3 EML4-ALK v1, no mutation	cell viability	–	–	Emax	99.8%
NCCCOc1cc(NC(=O)c2cccc(C(=O)Nc3cc(OCCCN)c4ccccc4n3)n2)nc2ccccc12	HT-1080	cell viability, CellTiter-Glo	72 h	relative to: IC50 HT-1080 over WI-38	selectivity ratio	1.5

SMILES	cell line	assay	setting	how to read	quantity	value
O=C(/C=C/C=C/C=C/C1CCCCC1)NC1=C[C@@](O)(/C=C/C=C/C=C/C(=O)NC2=C(O)CCC2=O)[C@@H]2O[C@@H]2C1=O	SK-N-SH	CellTiter-Glo	78 h	–	GI50	4.7 µM
CC/C(=N\NC(=O)NCc1cccc(O)c1)c1ccc(O)c(C)c1O	SK-OV-3	ATP	1 µM, 4 days, 3D gellan gum culture	relative to: untreated	relative cell number	109%
C=Cc1c2[n-]c(c1C)/C=c1\[n-]/c(c(C)c1C=C)=C\c1[n-]c(c(CCC(=O)O)c1C)/C=c1\[n-]c(c(C)c1CCC(=O)O)=C2.[Sn+4]	SH-SY5Y	RNA-seq, refers to: FOSL2 mRNA	5 µM, 5 h	relative to: untreated cells	fold change	1.51
NCCCOc1cc(NC(=O)c2cc(Cl)cc(C(=O)Nc3cc(OCCCN)c4ccccc4n3)n2)nc2ccccc12	HT-1080	cell viability, CellTiter-Glo	72 h	relative to: IC50 HT-1080 over WI-38	selectivity ratio	1
C[C@H](Nc1ccc2c(c1)OCCn1cc(N3C(=O)OC[C@H]3C(F)F)nc1-2)C(N)=O	KYSE-510	cell growth, CellTiter-Glo	120 h	–	Hill coefficient GR curve	1.04
CCCCc1oc2ccc(NS(C)(=O)=O)cc2c1C(=O)c1ccc(OCCCN(CCCC)CCCC)cc1	human embryonic stem cell aggregates	mRNA level, microarray, refers to: RHOC	0.5 µM, 120 h	relative to: untreated, down-regulated	fold change	1.8 fold
CN(C)c1ncnc2c1ncn2[C@@H]1O[C@H](CO)[C@@H](O)[C@H]1O	mock-transfected cells	TGFα shedding, agonist	1 µM	relative to: unstimulated vehicle control	AP-TGFα release	5.52% and 5.62% and 4.3%
CCOC(=O)C1=C(C)NC2=C(C(=O)OC(c3ccc(Cl)c(OC)c3)C2)C1c1ccccc1Cl (centres unmarked)	J774.A1	cytotoxicity	–	–	EC50	> 20 µM
C=CC(=O)N1CCC([C@@H]2CCNc3c(C(N)=O)c(-c4ccc(Oc5ccccc5)cc4)nn32)CC1	TMD8	calcium flux, FLIPR	1 h preincubation, together with: anti-IgM	–	maximum inhibition	62.3%
CC[C@H](C)[C@H](NC(=O)[C@H](C)NC(=O)CNC(=O)[C@H](Cc1ccccc1)NC(=O)[C@H](CC(N)=O)NC(=O)[C@H](CC(N)=O)NC(=O)[C@H](CO)NC(=O)[C@H](CO)NC(=O)[C@H](Cc1c[nH]cn1)NC(=O)[C@@H](NC(=O)[C@H](CC(C)C)NC(=O)[C@H](Cc1ccccc1)NC(=O)[C@H](CC(N)=O)NC(=O)[C@H](C)NC(=O)[C@H](CC(C)C)NC(=O)[C@H](CCCNC(=N)N)NC(=O)[C@H](CCC(N)=O)NC(=O)[C@@H](NC(=O)[C@H](C)NC(=O)[C@@H]1CSSC[C@H](NC(=O)[C@@H](N)CCCCN)C(=O)N[C@@H](CC(N)=O)C(=O)N[C@@H]([C@@H](C)O)C(=O)N[C@@H](C)C(=O)N[C@@H]([C@@H](C)O)C(=O)N1)[C@@H](C)O)C(C)C)C(=O)N[C@@H](CC(C)C)C(=O)N[C@@H](CO)C(=O)N[C@@H](CO)C(=O)N[C@H](C(=O)N[C@@H](CC(N)=O)C(=O)N[C@H](C(=O)NCC(=O)N[C@@H](CO)C(=O)N[C@@H](CC(N)=O)C(=O)N[C@H](C(=O)N[C@@H](Cc1ccc(O)cc1)C(N)=O)[C@@H](C)O)C(C)C)[C@@H](C)O	INS-1	confocal microscopy	1 µM, unit not given	relative to: control	intracellular ROS level	6.09
C[C@@H](O)[C@H](NC(=O)Nc1ncnc2c1ncn2[C@@H]1O[C@H](CO)[C@@H](O)[C@H]1O)C(=O)O	mock-transfected cells	TGFα shedding, agonist	100 nM	relative to: unstimulated vehicle control	AP-TGFα release	0%
CCCC1=C(C(=O)OCC)C(c2ccc(Cl)cc2C)C2=C(CC(c3ccc(Cl)c(OC)c3)CC2=O)N1 (centres unmarked)	J774.A1	cytotoxicity	–	–	EC50	> 20 µM
Nc1ncnc2[nH]cnc12	MDA-MB-231 BAX/BAK siRNA knockdown	cell viability, CellTiter-Glo	–	direction not given	Z score	1.73
Cc1cnc(NC2CCOCC2)nc1-n1cnc(C(=O)NC(CN)c2cc(F)cc(Cl)c2)c1 (centres unmarked)	MINO	flow cytometry	1 µM, 24 h	–	G2 phase cells	11.8%
CC(=O)c1nn(-c2ccc(Cl)cc2)/c(=N/N=C(\C)c2ccc(NC(=O)c3ccc(C)cc3)cc2)s1	MCF7	–	5 µM	–	toxicity	94.7%
CCOC(=O)C1=C(C)NC2=C(C(=O)CC(c3ccc(Cl)c(OC)c3)C2)C1c1ccc(Cl)cc1C (centres unmarked)	J774.A1	cytotoxicity	–	–	EC50	> 20 µM
N#C/C(=C\c1c[nH]nc1-c1cc(Br)cc(Br)c1)C(=O)O	LX-2	qPCR, refers to: ACTA2	10 µM, hepatic stellate cell activation, together with: TGFβ	relative to: untreated	mRNA level	decreased
CCn1cc(-c2cc(Cn3ccoc3=N)cc3c2CCN([C@@H](C)c2cc(OC)ccn2)C3=O)c(C(F)(F)F)n1	RL95-2	cell growth, inhibitor	120 h	–	EC50	2.73 µM
NS(=O)(=O)OC[C@@H]1C[C@@H](n2ccc3c(N[C@H]4CCc5ccccc54)ncnc32)C[C@@H]1O	BRD4-HiBiT cells	BRD4 degradation rescue, inhibitor	2 h, 50% degradation rescued, together with: dBET6 500 nM	–	EC50	0.094 µM

Some of these lines once more:
SMILES	cell line	assay	setting	how to read	quantity	value
CCOC(=O)C1=C(C)NC2=C(C(=O)CC(c3ccc(Cl)c(OC)c3)C2)C1c1ccc(Cl)cc1C (centres unmarked)	J774.A1	cytotoxicity	–	–	EC50	> 20 µM
N#C/C(=C\c1c[nH]nc1-c1cc(Br)cc(Br)c1)C(=O)O	LX-2	qPCR, refers to: ACTA2	10 µM, hepatic stellate cell activation, together with: TGFβ	relative to: untreated	mRNA level	decreased
CCn1cc(-c2cc(Cn3ccoc3=N)cc3c2CCN([C@@H](C)c2cc(OC)ccn2)C3=O)c(C(F)(F)F)n1	RL95-2	cell growth, inhibitor	120 h	–	EC50	2.73 µM
NS(=O)(=O)OC[C@@H]1C[C@@H](n2ccc3c(N[C@H]4CCc5ccccc54)ncnc32)C[C@@H]1O	BRD4-HiBiT cells	BRD4 degradation rescue, inhibitor	2 h, 50% degradation rescued, together with: dBET6 500 nM	–	EC50	0.094 µM
